Results of several laboratories.
Each line is one published result; not all experiments were run side by side. Several values in a cell are separate wells, animals, samples, runs or records. Numbers after ± are the reported error.

The inhibition of `O=C(CCCSc1nc2c(c(=O)[nH]1)CCCC2)Nc1ccccc1` is reported as 76 ± 1% (cells, COS-1, expressing proMMP-9; cell migration, 2D collagen dot migration; 50 µM, 18 h).
`C=Cc1c2[n-]c(c1C)/C=c1\[n-]/c(c(C)c1C=C)=C\c1[n-]c(c(CCC(=O)O)c1C)/C=c1\[n-]c(c(C)c1CCC(=O)O)=C2.[Sn+4]` has a fold change of 2.14 (SH-SY5Y; RNA-seq, measured: HSPB8 mRNA; 5 µM, 5 h; baseline: untreated cells).
`COc1ccc(-n2nc(C(C)=O)s/c2=N\N=C(/C)c2ccc(NC(=O)c3ccccc3)cc2)cc1` has a toxicity of 97.5% (MCF7; 10 µM).
With `COc1ccc(C(=O)/C=C/Sc2nc3ccccc3o2)cc1` the maximum efficacy was 73% (C127 LDR GFP reporter cells; silenced GFP reporter induction, activator, high-content imaging; independent samples, two-run mean).
`CCCCc1oc2ccc(NS(C)(=O)=O)cc2c1C(=O)c1ccc(OCCCN(CCCC)CCCC)cc1` gave a fold change of 2.1 fold (human embryonic stem cell aggregates; mRNA level, microarray, measured: PAX3; 0.5 µM, 120 h; baseline: untreated, down-regulated).
`Clc1ccc(C2(c3ccc(-c4cn[nH]c4)cc3)CCNCC2)cc1` has a Bcl-2 MFI of 3910 a.u. (primary CLL cells; flow cytometry; human; 0.1 µM, 24 h; baseline: DMSO, higher = more protein).
Under “log2 fold change”, `Cn1cc(-c2ccc(-c3cncc(Cl)c3N3CCC4(CCNC4=O)CC3)cc2)cn1` is recorded as 7.86 (COLO 205; gene expression, microarray, measured: ANKRD37 mRNA; concentration not given, 2 h; baseline: untreated cells).
Under “surface marker level”, `Nc1cccc2c1C(=O)N(C1CCC(=O)NC1=O)C2=O` (centres unmarked) is recorded as 201% (RPMI-8226; flow cytometry, measured: CD63; concentration not given; baseline: comparator compound alone).
The cAMP accumulation of `CSCC[C@H](NC(=O)[C@H](Cc1ccc(OS(=O)(=O)O)cc1)NC(=O)[C@@H](N)CC(=O)O)C(=O)NCC(=O)N[C@@H](Cc1c[nH]c2ccccc12)C(=O)N[C@@H](CCSC)C(=O)N[C@@H](CC(=O)O)C(=O)N[C@@H](Cc1ccccc1)C(N)=O` is reported as 0.247 a.u. (HEK293T control virus; agonist, GloSensor cAMP; 80 nM, no receptor expressed; higher = more cAMP).
`C=CCn1c(=O)c2cnc(Nc3ccc(N4CCN(C)CC4)cc3)nc2n1-c1ccc2c(n1)[C@@](O)(CC)CC2` — result for “G2/M cells in subpopulation”: 9.9% (Kuramochi; flow cytometry, measured: pHH3+γH2Ax+; concentration not given).
Under “pathway activation z-score”, `Cn1cc(Nc2nccc(-c3ccc4c(c3)CN(C3COC3)CC[C@H]4NC(=O)c3cn(C(C)(C)C)nn3)n2)cn1` is recorded as 2.98 (mouse splenic B cells; measured: Sphingosine-1-phosphate signalling; 30 mg/kg, IgD-activated in vivo; baseline: vehicle, direction not given).
The activity score of `CCCCCCCCCCCCC[N+](C)(C)Cc1ccccc1` is reported as 3.6 (human iPSC-derived cardiomyocytes; MyBP-C/MYH ratio, plate-normalised SD score; concentration not given, primary screen; direction not given).
Under “surface marker level”, `Cc1cccc(-c2[nH]c(CNc3ccccc3F)nc2-c2ccc3ncnn3c2)n1` is recorded as 55.9% (RPMI-8226; flow cytometry, measured: CD162; concentration not given; baseline: comparator compound alone).
For `O=C(NCc1ccccc1)OCCO`, the activity score was 3.6 (human iPSC-derived cardiomyocytes; MyBP-C/MYH ratio, plate-normalised SD score; concentration not given, primary screen; direction not given).
The uptake of `CN(Cc1cnc2nc(N)nc(N)c2n1)c1ccc(C(=O)N[C@@H](CCC(=O)O)C(=O)O)cc1` is reported as 18.3% (cells transfected with L242C mutant; 0.5 µM, 2 min, pH 5.5, 37 °C).
Under β-catenin expression, `C[C@H](CCC(=O)O)[C@H]1CC[C@H]2[C@@H]3CC[C@@H]4C[C@H](O)CC[C@]4(C)[C@H]3CC[C@]12C` is recorded as “decreased” (HIEC; concentration not given, with: deoxycholic acid; baseline: deoxycholic acid alone).
`COc1ccc(-c2cc(-c3ccccc3)nc(SCC(=O)Nc3nccs3)c2C#N)cc1` has an efficacy of 42% (C127 LDR GFP reporter cells; silenced GFP reporter induction, activator, high-content imaging; retest, two-run mean).
For `CNc1ncnc2c1c(-c1ccc3cc(OC4CC4)ccc3c1)nn2CC(C)(C)O`, “extracellular acidification rate” read “inhibited” (LNCaP and LNCaP-95; glycolysis, Seahorse; 20 µM, 1 h).
For `Cc1c(C(=O)O)ccc2c3n(nc12)[C@@H]1[C@H](C3)N(CC2CC2)[C@@]2(C(=O)Nc3cc(Cl)ccc32)[C@H]1c1cccc(Cl)c1F`, the GI50 was 0.33 nM (NUGC-4; cell growth, alamarBlue; unbound).
`Cc1nn(-c2nc3c(F)cc(F)cc3s2)c(O)c1C(c1ccc(C(F)(F)F)cc1)c1c(C)nn(-c2nc3c(F)cc(F)cc3s2)c1O` — result for “phospho-TBK1 to TBK1 ratio”: 0.659 and 0.515 and 0.415 (RAW-ISG; western blot; 20 µM, with: HT-DNA; baseline: DMSO).
`Cc1ccc(C=NNC(=O)C2CC(=O)N(c3ccc(F)cc3F)C2)cc1` (centres unmarked): “viability reduction, up to” 30% and 31.9% (A-375 and fibroblast spheroids; MTT; 10 µM, day 8).
`CC1(C)CCC(CN2CCN(c3ccc(C(=O)NS(=O)(=O)c4ccc(NCC5CCOCC5)c([N+](=O)[O-])c4)c(Oc4cnc5[nH]ccc5c4)c3)CC2)=C(c2ccc(Cl)cc2)C1` — result for “late apoptotic cells”: 1.2% (K562; annexin V/PI flow cytometry, measured: annexin V+/PI+; 3.2 µM, 24 h).
For `CCCCCCCCCCCCCCCC[N+](C)(C)CCN(Cc1ccc(OC)cc1)c1ncccn1`, the activity score was 3.1 (human iPSC-derived cardiomyocytes; MyBP-C/MYH ratio, plate-normalised SD score; concentration not given, primary screen; direction not given).
With `NCCOc1cc(NC(=O)c2cccc(C(=O)Nc3cc(OCCN)c4ccccc4n3)n2)nc2ccccc12` the selectivity ratio was 1.7 (U2OS; cell viability, CellTiter-Glo; 72 h; baseline: IC50 U2OS over WI-38).
With `Cc1ccc(CNC(=O)Cn2cc(CSc3nc4ccccc4[nH]3)nn2)cc1` the viability was 19% (Caco-2; MTT; 62.5 ppm).
`CC/C(=N\NC(=O)C(C)Nc1ccccc1)c1ccc(O)c(C)c1O` (centres unmarked) has a protein level of 0.73 ± 0.42 (SK-OV-3; Western blot, measured: LATS; 10 µM, 1 h, 3D gellan gum culture, unit not given; baseline: β-actin).
`O=c1[nH]nc(OCCCc2ccc(Cl)cc2)c(NCc2cccnc2)c1Br` — result for “log2 fold change”: -0.145 (HEK293T; RNA-seq, measured: HSP90AA1 mRNA; 10 µM, 6 h; baseline: vehicle).
For `CCN(CC)C(=O)c1ccc(O)c(OC)c1`, the activity score was 3.5 (human iPSC-derived cardiomyocytes; MyBP-C/MYH ratio, plate-normalised SD score; concentration not given, primary screen; direction not given).
`CCn1cc(-c2cc(Cn3ccoc3=N)cc3c2CCN([C@@H](C)c2cc(OC)ccn2)C3=O)c(C(F)(F)F)n1` has an EC50 of 764 nM (REH; cell growth, inhibitor; 120 h).
`O=C(Nc1nnc2[nH]c(=S)[nH]c(-c3ccc(Cl)cc3)c1-2)c1ccccc1` gave a cell growth of 101% (M14; SRB; 10 µM, NCI60 single-dose screen; baseline: untreated).
`Clc1nc(NCc2ccco2)c2[nH]cnc2n1` gave a ΔPSI of -0.268 (FD iPSC-derived cardiomyocytes; alternative splicing, RNA-seq, measured: GLA exon chrX(-):101399743-101399800; unit not given; baseline: DMSO minus compound).
`CCn1cc(-c2cc(Cn3ccnc3)cc3c2CCN([C@H](c2cc(OC)ccn2)C2CC2)C3=O)c(C(F)(F)F)n1` has an EC50 of > 30000 nM (SNU-182; cell growth, inhibitor; 120 h).
For `CCOc1ccc(-c2nc3cc(-c4nc5cc(N6CCN(C)CC6)ccc5[nH]4)ccc3[nH]2)cc1OCC`, the growth percent was 10% (M14; SRB; 10 µM, 48 h).
`Cc1c(NC(C)C)c(=O)n(-c2ccccc2)n1C` has an activity score of -4.3 (human iPSC-derived cardiomyocytes; MyBP-C/MYH ratio, plate-normalised SD score; concentration not given, primary screen; direction not given).
For `COc1cnc2cccc(N3CCc4c(cc(Cn5ccnc5C)cc4-c4cn(C)nc4C(F)(F)F)C3=O)c2c1`, the EC50 was > 30000 nM (REH; cell growth, inhibitor; 120 h).
The maximum efficacy of `Oc1ccc(Br)cc1C=Nc1ccc2c3c(cccc13)CC2` is reported as 9% (C127 LDR GFP reporter cells; silenced GFP reporter induction, activator, high-content imaging; independent samples, two-run mean).
For `C=C1C(=O)O[C@@H]2C[C@@]3(C)CCC[C@H](C)C3=C[C@H]12`, the activity score was 5.8 (human iPSC-derived cardiomyocytes; MyBP-C/MYH ratio, plate-normalised SD score; concentration not given, primary screen; direction not given).
For `CN(C)S(=O)(=O)c1cccc(NC(=S)N/N=C/c2ccco2)c1`, the efficacy was 37% (C127 LDR GFP reporter cells; silenced GFP reporter induction, activator, high-content imaging; retest, two-run mean).
`COc1cc(N2CCC(N3CCN(C)CC3)CC2)ccc1Nc1ncc(Cl)c(Nc2ccccc2P(C)(C)=O)n1` has a GI50 of 890 nM (NCI-H1975 (EGFR L858R/T790M); cell growth, CellTiter-Glo; 72 h).
`C#CCOc1cc(C(=O)Nc2cc(OCCCN)c3ccccc3n2)nc(C(=O)Nc2cc(OCCCN)c3ccccc3n2)c1` has a selectivity ratio of 1.5 (U2OS; cell viability, CellTiter-Glo; 72 h; baseline: IC50 U2OS over WI-38).
The cell growth of `Cc1cc(=O)[nH]n1-c1nc(-c2ccc(Cl)cc2)c2c(NC(=O)c3ccccc3)nnc-2[nH]1` is reported as 91.8% (M14; SRB; 10 µM, NCI60 single-dose screen; baseline: untreated).
`C=C1C(=O)O[C@@H]2[C@@H]3C4(C=C[C@@]3(C)C3(C4)C(=O)O[C@@H]4[C@H]5C(C)=CC(=O)C5=C(C)C[C@H](O)[C@H]43)[C@@](C)(OC(C)=O)CC[C@@H]12` (some centres unmarked) gave a maximum inhibition of 32.2 ± 2.58% (AML12 mouse hepatocytes; lipid accumulation, Nile Red staining; maximum safe concentration, 24 h, with: palmitic acid/oleic acid).
For `C=CC1=C(C)c2cc3[n-]c(cc4nc(cc5[n-]c(cc1n2)c(C)c5C=C)C(C)=C4CCC(=O)O)c(CCC(=O)O)c3C.[Zn+2]`, the fold change was 1.58 (SH-SY5Y; RNA-seq, measured: FOSL2 mRNA; 5 µM, 5 h; baseline: untreated cells).
`CC(=O)S[C@@H]1CC2=CC(=O)CC[C@]2(C)[C@H]2CC[C@@]3(C)[C@@H](CC[C@@]34CCC(=O)O4)[C@H]12` gave an activity score of 5.2 (human iPSC-derived cardiomyocytes; MyBP-C/MYH ratio, plate-normalised SD score; concentration not given, primary screen; direction not given).
For `O=C(/C=C/C=C/C=C/C1CCCCC1)NC1=C[C@@](O)(/C=C/C=C/C=C/C(=O)NC2=C(O)CCC2=O)[C@@H]2O[C@@H]2C1=O`, the GI50 was 21800 nM (NCI-H838; cell growth, CellTiter-Glo; 78 h).
`Cc1cc(OCc2nnc(SC3CCCC3)n2-c2cccnc2)ccc1-c1ccc(S(C)(=O)=O)cc1` has an activity score of 4.2 (human iPSC-derived cardiomyocytes; MyBP-C/MYH ratio, plate-normalised SD score; concentration not given, primary screen; direction not given).
`O=c1c2ccccc2nc(COc2ccccc2)n1/N=C/c1c[nH]c2ccccc12` has an efficacy of 26% (C127 LDR GFP reporter cells; silenced GFP reporter induction, activator, high-content imaging; retest, two-run mean).
For `CC[C@H](C)/C=C/C(=O)N1C[C@@H](C)C[C@H]1C(=O)N[C@@H](CCC1CCCCC1)C(=O)N[C@@H](CC(C)C)C(=O)NC(C)(C)C(=O)N[C@@H](CC(C)C)C(=O)N[C@@H](CC(C)C)C(=O)NC(C)(C)C(=O)NC(C)(C)C(=O)NCCC(=O)N[C@@H](C)CN(C)C`, respiration read “no inhibition” (permeabilized human fibroblasts; high-resolution respirometry; 50 nM, after first injection, with: succinate).
`CCCc1cc(=O)nc(SCCCC(=O)Nc2ccc(OC(F)F)cc2)[nH]1` gave an inhibition of 63 ± 4% (cells, COS-1, expressing proMMP-9; cell migration, 2D collagen dot migration; 50 µM, 18 h).
For `C[C@H](Nc1ccc2c(c1)OCCn1cc(N3C(=O)OC[C@H]3C(F)F)nc1-2)C(N)=O`, “Hill coefficient GR curve” read 0.0001 (BT-483; cell growth, CellTiter-Glo; 120 h).
